Published values from different studies.
Every numbered part comes from another study and shows a few of its results, in no order. Substitutions count along the parent as printed.

Set 1
Target: Histone acetyltransferase KAT6A, both winged helices, GST fusion (KAT6A, Homo sapiens, UniProt Q92794, residues 1-181)
Method: protein binding microarray
Form: double-stranded DNA, one strand shown
Sample: in vitro
Tested at: not given
Setting: 8-mer, flanks averaged, mean of 2 arrays, mostly near background
Baseline: not given
Direction: higher = stronger binding
Endpoint: E-score
Residues (chain): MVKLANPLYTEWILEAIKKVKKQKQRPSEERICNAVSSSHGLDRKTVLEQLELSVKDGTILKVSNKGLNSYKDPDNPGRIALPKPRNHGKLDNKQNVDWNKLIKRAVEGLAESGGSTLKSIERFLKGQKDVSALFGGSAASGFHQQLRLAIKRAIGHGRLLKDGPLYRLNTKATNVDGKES
CACTTTTA: -0.118
CATCTCAA: -0.0876
ATGCACCA: -0.0535
ACTAATCG: -0.038
AAGGCGGA: 0.187
ATATAACG: -0.0341
CACAATTA: -0.0429
CTAGACCA: -0.156
AAAGGCAG: -0.088
TACGGTCA: 0.178

Set 2
Target: CCNE2, cyclin fold, Cln2 fusion (human)
Method: yeast growth competition, sequencing
Sample: yeast
Setting: weak parent motif
Baseline: not given
Direction: higher = stronger binding
Endpoint: normalised enrichment score
Starting sequence: ORC1 docking peptide (human); PRARKRLELGNLG
PRARKRLELGNLI [G13I]: 1.09
HRARKRLELGNLG [P1H]: 0.398
PRARKRCELGNLG [L7C]: 0.459
PRARLRLELGNLG [K5L]: -0.128
PRARKRLELINLG [G10I]: 0.53
ARARKRLELGNLG [P1A]: 1.47
PRDRKRLELGNLG [A3D]: 0.276
PRMRKRLELGNLG [A3M]: 2.31
PRARKRLELGNLL [G13L]: 0.384
PRARKRLELGLLG [N11L]: 1.05
PRARKHLELGNLG [R6H]: 0.872
PRARKRLELGELG [N11E]: -0.53
PRALKRLELGNLG [R4L]: 0.441
PVARKRLELGNLG [R2V]: 0.75
PRPRKRLELGNLG [A3P]: 0.965
PRQRKRLELGNLG [A3Q]: 1.63

Set 3
Target: Sal-like protein 4, full length isoform B (SALL4, Homo sapiens, UniProt Q9UJQ4-2, residues 1-616)
Method: universal PBM
Form: double-stranded DNA, one strand shown
Sample: in vitro
Tested at: not given
Setting: 8-mer, flanks averaged, mean of replicates
Direction: higher = stronger binding
Endpoint: E-score
AAAGAGGC: -0.139
GAATCCAA: 0.0232
AAGTAACA: 0.139
CAAGCACG: -0.157
AACTATTG: 0.336
AGAGCTCC: -0.292
AATAGTTA: 0.259
CCGCTGCG: -0.242
TATACTGA: 0.291
CTCTCTAC: 0.0266
TAAGGCCA: -0.087
GCCCGGGC: -0.343
AGTGCTCC: -0.212
AAGTTTCA: 0.215

Further values, each from its own experiment
PhoQ, residues 284 288 289 292 302 303 GLASVI
fold induction (PhoP, residues 12 14 15 18 19 VQGLL (Escherichia coli, UniProt P23836); Sort-seq, measured: YFP reporter; E. coli; PhoQ-PhoP variant library, added: 10 µM Mg2+; baseline: high Mg2+ state, higher = stronger signaling): 11.5

For quick reference, copied from above (set 3):
GAATCCAA: 0.0232
AATAGTTA: 0.259
AACTATTG: 0.336
